Measured values pooled from the literature.
Lines come from different studies, so protocols differ. “And” joins repeats or separate records; there may be more than shown. ± gives the spread as reported.

| SMILES | test | test system | setting | scale | quantity | value |
| --- | --- | --- | --- | --- | --- | --- |
| Cc1cc(-c2nccc3c2ccn3CC(=O)Nc2ccc(-c3cnccn3)cn2)ccn1 |  | human | SAD part, single 20 mg dose |  | subjects with Vomiting TEAEs | 0% |
| NC(N)=NCCC[C@@H](N)C(=O)N[C@@H](CCCN=C(N)N)C(=O)N1CCC[C@H]1C(=O)N1C[C@H](O)C[C@H]1C(=O)NCC(=O)N[C@@H](Cc1cccs1)C(=O)N[C@@H](CO)C(=O)N1Cc2ccccc2C[C@@H]1C(=O)N1[C@H](C(=O)N[C@@H](CCCN=C(N)N)C(=O)O)C[C@@H]2CCCC[C@@H]21 | popPK full model bootstrap median | human | subcutaneous |  | peripheral clearance (Q/F) | 0.408 L/h |
| O=C(CCCN1CC=C(n2c(=O)[nH]c3ccccc32)CC1)c1ccc(F)cc1 |  | male Hartley guinea pigs, anaesthetized | intravenous, 0.03 mg/kg group, baseline before infusion |  | heart rate | 241 ± 0.8 beats/min |
| CCOc1c([C@H](C)n2nc(C)c3c(N)ncnc32)cc(Cl)c(F)c1[C@@H]1CNC(=O)C1 |  | patients, monotherapy | oral, 5 mg once daily, cycle 1 day 15 |  | half-life | 684 min |
| O=C1NCCc2nc(OCc3cccc(F)c3)ccc21 | item: tail erection | Sprague-Dawley rat male | oral, 100 mg/kg, 0 min | relative to: baseline, direction not given | Irwin test score | 0 |
| O=C(c1cc(Cc2n[nH]c(=O)c3ccccc23)ccc1F)N1CCN(C(=O)C2CC2)CC1 |  | human | oral, dose not given, added: carboplatin |  | AUC(last) change | 25% |
| NC1(C(=O)N[C@@H](CCO)c2ccc(Cl)cc2)CCN(c2nc[nH]c3nccc2-3)CC1 |  | metastatic CRPC patients | dose not given, grade 3 to 4, treatment-related, all doses, added: enzalutamide 160 mg daily |  | incidence of Dysgeusia | 0% |
| Cc1cc2sc(N)nc2c2cccnc12 |  | female BALB/c mice, plasma | intraperitoneal, 30 mg/kg, 24 h |  | last concentration | 33.3 ng/mL |
| O=C(COc1ccc(Cl)cc1)NC12CC(c3nnc([C@H]4C[C@@H](OC(F)(F)F)C4)o3)(C1)C2 | item: postural dizziness | human | oral, 100 mg once daily, 14 days |  | adverse event incidence | 14.3% |
| COc1cc(Nc2ncc3c(n2)-c2ccc(Cl)cc2C(c2c(F)cccc2OC)=NC3)ccc1C(=O)O | item: Hypokalemia, all grades | cancer patients, phase 1/2 | oral, dose not given, added: pembrolizumab |  | patients with adverse event | 13% |
| Cc1nc2cccc(OCC(C)(C)C(=O)NC(C)C)c2c(N)c1C(=O)O |  | male CD-1 mouse, bone marrow | oral, 2000 mg/kg, 36 h |  | micronucleated normochromatic erythrocytes | 1.3 per 2000 PCEs |
| Oc1ccc(/C=C/c2cc(O)cc(O)c2)cc1 |  | rat, azoxymethane-injected, blood | in vivo, 100 mg/kg, at sacrifice |  | LDL-C level | 3 mg/dL |
| Cl.[2H]C([2H])([2H])CC(=O)c1cnc(NC(=O)C2CC2)cc1Nc1cccc(-c2ncn(C([2H])([2H])[2H])n2)c1OC | geometric mean | human | oral, 20 mg twice daily, day 1, fed, liquid, multiple dose |  | half-life | 257 min |
| CNCc1ccc(-c2[nH]c3cc(F)cc4c3c2CCNC4=O)cc1 |  | patients | oral, 600 mg twice daily, grade 4 |  | anaemia incidence | 0% |
| COc1cc2nccc(Oc3ccc(NC(=O)c4cc5c(n(-c6ccccc6)c4=O)CCCC5=O)nc3)c2cc1OC |  | patients with relapsed/refractory AML | oral, 6 mg once daily |  | TEAEs leading to interruption | 33.3% |
| NC/C(=C\F)COc1cccc(Cn2c(=S)[nH]c(=O)c3[nH]cnc32)c1 |  | dog plasma | 1 µM, 1 h |  | remaining compound | 80% |
| CCN1/C(=C/C(C)=O)Sc2ccc(F)cc21 |  | cynomolgus monkey | oral, 10 mg/kg, 6 h |  | PR interval | 92 ± 3 ms |
| Cc1cc(NC2CCN(C(=O)OC3CCN(C(=O)/C=C/CN(C)C)C3)CC2)n2ncc(C(C)C)c2n1 (centres unmarked) |  | patients with advanced solid tumours | dose not given, QD arm, any grade |  | patients with Constipation | 5% |
| O=C(O)/C=C/c1ccc(OS(=O)(=O)O)cc1 |  | human CSF | concentration not given, mean |  | CSF concentration | not detected |
| OCCOCc1ccc(-c2noc(-c3ccc(OCC[18F])c(C(F)(F)F)c3)n2)cc1 | radio-HPLC | Macaca mulatta, arterial plasma | 60 min, radiotracer |  | parent fraction in plasma | 37 to 38% |
| CCC(C)n1ncn(-c2ccc(N3CCN(c4ccc(OCC5COC(Cn6cncn6)(c6ccc(Cl)cc6Cl)O5)cc4)CC3)cc2)c1=O (centres unmarked) |  | healthy human volunteers | oral, 200 mg, compound alone cohort |  | incidence of feeling hot | 0% |
| C[C@@H](Nc1cc(F)cc(F)c1)c1cc(C(=O)N(C)C)cc2c(=O)cc(N3CCOCC3)oc12 |  | human | oral, 60 mg twice daily, 5:2 schedule, steady state, geometric LSM, added: abiraterone 1000 mg |  | AUC(tau) | 1560 ng·h/mL |

| SMILES | test | test system | setting | scale | quantity | value |
| --- | --- | --- | --- | --- | --- | --- |
| C[C@@H](Oc1ccc(S(C)(=O)=O)cc1C(=O)N1C[C@@H]2C[C@]2(c2cc(C(F)(F)F)on2)C1)C(F)(F)F |  | human | oral, 25 mg |  | incidence of Insomnia | 16.7% |
| OCc1nc2ccc(NCc3ccc(C(F)(F)F)cc3)cc2[nH]1 |  | Balb/c mice, male, plasma | intravenous, 1 mg/kg |  | terminal elimination rate constant | 3.61e-05 ± 2.78e-05 s⁻¹ |
| COc1ccc([C@@H](O)c2cc(-c3ncnc4cc(N5CCOCC5)ccc34)c(F)cc2Cl)nn1 |  | locally advanced rectal cancer patients | 50 mg, added: capecitabine and radiotherapy |  | lymphopenia TEAE incidence | 0% |
| COc1c(O)cccc1OS(=O)(=O)O |  | human CSF | concentration not given, mean |  | CSF concentration | not detected |
| C[C@@H](N)C1CCN(S(=O)(=O)c2cccc3cnccc23)CC1 |  | healthy volunteers | 250 mg, fasted |  | participants with mental impairment | 16.7% |
| Cc1ccc(C(=O)N(CCCN)C(c2nc3snc(C)c3c(=O)n2Cc2ccccc2)C(C)C)cc1 (centres unmarked) | hypophosphataemia grade ≥3 (CTCAE) | human patients | intravenous, 2 mg/day |  | patients with adverse event | 0% |
| CNc1ccc(-c2nc3ccc(O)cc3s2)cc1 [carbon-11 labelled] | ex vivo biodistribution | APP/PS1 mouse, AD model, liver | intravenous, 30 min |  | SUV | 3.15 ± 1.16 |
| CC(C)NCCCC[C@@H]1NC(=O)[C@H](Cc2ccc(O)cc2)NC(=O)[C@H](Cc2ccccc2)NC(=O)CC[C@H](C(=O)N[C@@H](CCCCNC(C)C)C(=O)N[C@@H](CCCCNC(=O)[C@H](CCC(=O)O)NC(=O)[C@H](CCC(=O)O)NC(=O)[C@H](CCC(=O)O)NC(=O)CN2CCN(CC(=O)O)CCN(CC(=O)O)CCN(CC(=O)O)CC2)C(N)=O)NC(=O)CNC(=O)[C@H](Cc2ccc3ccccc3c2)NC(=O)[C@@H](CCCNC(=N)N)NC1=O [gallium-68 labelled] |  | mouse with Daudi xenograft, heart | intravenous, 2 h |  | tissue uptake | 0.05 %ID/g |
| COc1ccc2c(C(=O)c3cc(OC)c(OC)c(OC)c3)c(-c3ccc(OC)c(OCc4ccc([N+](=O)[O-])s4)c3)[nH]c2c1 | non-enzymatic, no POR | phosphate buffer | 24 h, pH 7.4 |  | parent drug release | 0% |
| O=c1c(O)c(-c2ccc(O)cc2O)oc2cc(O)cc(O)c12 |  | human CSF | concentration not given, mean |  | CSF concentration | not detected |
| COC(=O)N[C@H](C(=O)N[C@@H](Cc1ccccc1)[C@@H](O)CN(Cc1ccc(-c2ccccn2)cc1)NC(=O)[C@@H](NC(=O)OC)C(C)(C)C)C(C)(C)C | modified PAMPA Franz cell | phosphate buffer with HPMCAS | 3 h, 1000 rpm, 460 nm particles, added: no BSA |  | plateau flux concentration | 190 µg/mL |
| CSc1cc(C)nc(SC)c1NC(=O)CN1CCN(CCSc2nc3ccccc3[nH]2)CC1.Cl |  | mouse, nasal olfactory epithelium | intranasal, 10 µL of 3.24 mg/mL in 0.01 N HCl daily, 7 days |  | olfactory epithelium thickness | 50.4 and 41.3 and 48.6 and 50.8 |
| COc1cc(C(=O)O)cc(OC)c1O |  | human CSF | concentration not given, mean |  | CSF concentration | not detected |
| C=CC(=O)NC1CCN(c2ncc3ncnc(Nc4ccc(Oc5ccc6c(c5)ncn6C)c(C)c4)c3n2)CC1 |  | healthy male humans | oral, 240 mg |  | participants with AE grade ≥3 | 0% |
| O=C(O)CCC(=O)O.[2H]C([2H])([2H])Oc1cc(C)c2[nH]ccc2c1CN1CC[C@@H](C2CC2)C[C@H]1c1ccc(C(=O)O)cc1 | multiple ascending dose | healthy Chinese subjects | 300 mg once daily |  | subjects with TEAE Appendicitis | 0% |
| O=C(Nc1ccc(OC(F)(F)Cl)cc1)c1cnc(N2CC[C@@H](O)C2)c(-c2ccn[nH]2)c1 | per treatment cycle, item: lipase increase | human patients | oral, dose not given, 28 day cycle, dose-finding study |  | grade ≥3 event rate | 2.3% |
| O=C1CCc2ccc(OCCCCN3CCN(c4cccc(Cl)c4Cl)CC3)cc2N1 |  | CYP2D6 poor metabolizers | concentration not given, genotype-based phenotype, long-acting oral or depot |  | cardiovascular symptom frequency | 5.3% |
| Cn1cnc2c(F)c(Nc3ccc(Br)cc3Cl)c(C(=O)NOCCO)cc21 |  | human, plasma | oral, dose not given, zero-order absorption |  | peripheral volume of distribution | 52.5 L |
| CC(=O)N(C)C1CCN(c2cc(F)cc(NC(=O)c3cc4c(F)ccc(C)c4[nH]3)c2)C1 (centres unmarked) |  | CD1 mouse, plasma | intravenous, 1 mg/kg, 2 h |  | plasma concentration | 56.1 ng/mL |
| N#Cc1ccc2c(c1)[C@H]1CCCN(C(=O)c3ccc4[nH]cnc4c3)[C@H]1C2 |  | human females | 40 mg, day 15 |  | SHBG level | 35.1 nmol/L |
| [18F]c1ccc(-c2ccc3c(c2)[nH]c2ccncc23)cn1 | ex vivo biodistribution | APP/PS1 Alzheimer mice, caudate nucleus | intravenous, 30 min |  | uptake | 0.287 ± 0.097 SUV |
| CCc1cc(C(=O)NC)c2nccc(N3CCc4c(cc(Cn5ccnc5)cc4-c4cn(C)nc4C(F)(F)F)C3=O)c2c1 |  | Sprague Dawley rats | oral, 100 mg/kg twice daily, 7 days | relative to: vehicle | blood CK change | -20.1% |

Some of these lines once more:
| SMILES | test | test system | setting | scale | quantity | value |
| --- | --- | --- | --- | --- | --- | --- |
| CC(C)NCCCC[C@@H]1NC(=O)[C@H](Cc2ccc(O)cc2)NC(=O)[C@H](Cc2ccccc2)NC(=O)CC[C@H](C(=O)N[C@@H](CCCCNC(C)C)C(=O)N[C@@H](CCCCNC(=O)[C@H](CCC(=O)O)NC(=O)[C@H](CCC(=O)O)NC(=O)[C@H](CCC(=O)O)NC(=O)CN2CCN(CC(=O)O)CCN(CC(=O)O)CCN(CC(=O)O)CC2)C(N)=O)NC(=O)CNC(=O)[C@H](Cc2ccc3ccccc3c2)NC(=O)[C@@H](CCCNC(=N)N)NC1=O [gallium-68 labelled] |  | mouse with Daudi xenograft, heart | intravenous, 2 h |  | tissue uptake | 0.05 %ID/g |
| O=C(Nc1ccc(OC(F)(F)Cl)cc1)c1cnc(N2CC[C@@H](O)C2)c(-c2ccn[nH]2)c1 | per treatment cycle, item: lipase increase | human patients | oral, dose not given, 28 day cycle, dose-finding study |  | grade ≥3 event rate | 2.3% |
| NC(N)=NCCC[C@@H](N)C(=O)N[C@@H](CCCN=C(N)N)C(=O)N1CCC[C@H]1C(=O)N1C[C@H](O)C[C@H]1C(=O)NCC(=O)N[C@@H](Cc1cccs1)C(=O)N[C@@H](CO)C(=O)N1Cc2ccccc2C[C@@H]1C(=O)N1[C@H](C(=O)N[C@@H](CCCN=C(N)N)C(=O)O)C[C@@H]2CCCC[C@@H]21 | popPK full model bootstrap median | human | subcutaneous |  | peripheral clearance (Q/F) | 0.408 L/h |
| Cc1cc(NC2CCN(C(=O)OC3CCN(C(=O)/C=C/CN(C)C)C3)CC2)n2ncc(C(C)C)c2n1 (centres unmarked) |  | patients with advanced solid tumours | dose not given, QD arm, any grade |  | patients with Constipation | 5% |
| O=C(COc1ccc(Cl)cc1)NC12CC(c3nnc([C@H]4C[C@@H](OC(F)(F)F)C4)o3)(C1)C2 | item: postural dizziness | human | oral, 100 mg once daily, 14 days |  | adverse event incidence | 14.3% |
